Results from different studies.
Every numbered part comes from another study and shows a few of its results, in no order.
Chain of UniProt P48730 (whole entry, looked up): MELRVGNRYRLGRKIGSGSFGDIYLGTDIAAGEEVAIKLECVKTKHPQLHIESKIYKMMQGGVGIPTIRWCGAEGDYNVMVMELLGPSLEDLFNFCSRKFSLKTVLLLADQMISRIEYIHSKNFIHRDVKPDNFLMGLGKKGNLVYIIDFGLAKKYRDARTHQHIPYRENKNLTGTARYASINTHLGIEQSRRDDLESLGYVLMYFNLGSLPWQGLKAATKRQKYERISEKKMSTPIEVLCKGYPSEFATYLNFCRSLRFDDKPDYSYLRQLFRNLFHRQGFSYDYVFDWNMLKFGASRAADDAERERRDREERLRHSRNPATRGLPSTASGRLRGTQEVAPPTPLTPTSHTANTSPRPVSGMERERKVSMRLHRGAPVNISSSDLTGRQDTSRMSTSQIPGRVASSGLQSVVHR
Chain of UniProt Q9UK32 (whole entry, looked up): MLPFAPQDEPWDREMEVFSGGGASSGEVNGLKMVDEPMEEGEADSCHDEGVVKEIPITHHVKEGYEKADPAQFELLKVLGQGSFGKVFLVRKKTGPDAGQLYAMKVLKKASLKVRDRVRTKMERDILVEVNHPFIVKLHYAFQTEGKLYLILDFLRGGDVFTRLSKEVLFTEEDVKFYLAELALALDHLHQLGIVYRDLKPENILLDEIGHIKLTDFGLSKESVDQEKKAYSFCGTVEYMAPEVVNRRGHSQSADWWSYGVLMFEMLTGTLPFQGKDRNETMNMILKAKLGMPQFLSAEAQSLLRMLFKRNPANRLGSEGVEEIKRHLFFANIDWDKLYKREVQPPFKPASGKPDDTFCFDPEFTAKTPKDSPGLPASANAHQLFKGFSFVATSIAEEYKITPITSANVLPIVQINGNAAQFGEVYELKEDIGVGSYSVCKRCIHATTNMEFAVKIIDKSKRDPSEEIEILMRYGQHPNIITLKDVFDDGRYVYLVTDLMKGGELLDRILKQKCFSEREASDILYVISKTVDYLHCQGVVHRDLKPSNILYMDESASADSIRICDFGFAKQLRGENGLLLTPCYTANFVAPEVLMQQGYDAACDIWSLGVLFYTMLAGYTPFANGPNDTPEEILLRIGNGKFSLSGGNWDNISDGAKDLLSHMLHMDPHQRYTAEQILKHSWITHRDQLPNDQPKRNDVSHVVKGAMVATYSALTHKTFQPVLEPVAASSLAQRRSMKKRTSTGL
Chain of UniProt P42681 (whole entry, looked up): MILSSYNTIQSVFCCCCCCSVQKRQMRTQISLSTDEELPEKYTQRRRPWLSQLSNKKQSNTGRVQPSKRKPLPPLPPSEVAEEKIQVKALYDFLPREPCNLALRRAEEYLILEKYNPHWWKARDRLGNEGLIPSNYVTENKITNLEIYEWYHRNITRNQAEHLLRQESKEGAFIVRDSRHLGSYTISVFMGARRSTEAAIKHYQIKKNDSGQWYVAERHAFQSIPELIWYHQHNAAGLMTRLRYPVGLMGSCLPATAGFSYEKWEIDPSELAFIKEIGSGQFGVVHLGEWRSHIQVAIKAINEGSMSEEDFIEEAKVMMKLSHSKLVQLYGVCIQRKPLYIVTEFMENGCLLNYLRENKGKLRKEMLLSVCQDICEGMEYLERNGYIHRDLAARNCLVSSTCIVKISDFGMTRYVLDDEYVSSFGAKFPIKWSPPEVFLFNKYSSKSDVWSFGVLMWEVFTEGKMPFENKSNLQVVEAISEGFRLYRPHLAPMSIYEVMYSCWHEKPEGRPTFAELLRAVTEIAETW
Chain of UniProt Q09013 (whole entry, looked up): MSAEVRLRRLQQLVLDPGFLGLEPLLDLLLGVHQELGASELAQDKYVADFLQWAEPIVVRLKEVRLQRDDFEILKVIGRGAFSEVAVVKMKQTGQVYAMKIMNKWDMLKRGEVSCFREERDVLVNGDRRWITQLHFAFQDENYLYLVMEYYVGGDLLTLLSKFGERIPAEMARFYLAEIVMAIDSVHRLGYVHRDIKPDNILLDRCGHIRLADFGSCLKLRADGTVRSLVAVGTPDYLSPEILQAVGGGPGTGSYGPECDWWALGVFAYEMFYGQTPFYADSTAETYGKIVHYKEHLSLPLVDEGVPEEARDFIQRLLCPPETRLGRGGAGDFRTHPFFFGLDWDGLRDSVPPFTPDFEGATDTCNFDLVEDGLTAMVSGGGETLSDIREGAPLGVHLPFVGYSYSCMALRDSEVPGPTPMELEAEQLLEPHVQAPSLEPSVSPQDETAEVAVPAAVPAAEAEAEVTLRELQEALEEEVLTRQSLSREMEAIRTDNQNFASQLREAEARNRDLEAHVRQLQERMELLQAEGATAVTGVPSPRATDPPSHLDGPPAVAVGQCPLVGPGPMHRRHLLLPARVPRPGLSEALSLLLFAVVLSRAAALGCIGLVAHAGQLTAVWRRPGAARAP
Chain of UniProt Q56UN5 (whole entry, looked up): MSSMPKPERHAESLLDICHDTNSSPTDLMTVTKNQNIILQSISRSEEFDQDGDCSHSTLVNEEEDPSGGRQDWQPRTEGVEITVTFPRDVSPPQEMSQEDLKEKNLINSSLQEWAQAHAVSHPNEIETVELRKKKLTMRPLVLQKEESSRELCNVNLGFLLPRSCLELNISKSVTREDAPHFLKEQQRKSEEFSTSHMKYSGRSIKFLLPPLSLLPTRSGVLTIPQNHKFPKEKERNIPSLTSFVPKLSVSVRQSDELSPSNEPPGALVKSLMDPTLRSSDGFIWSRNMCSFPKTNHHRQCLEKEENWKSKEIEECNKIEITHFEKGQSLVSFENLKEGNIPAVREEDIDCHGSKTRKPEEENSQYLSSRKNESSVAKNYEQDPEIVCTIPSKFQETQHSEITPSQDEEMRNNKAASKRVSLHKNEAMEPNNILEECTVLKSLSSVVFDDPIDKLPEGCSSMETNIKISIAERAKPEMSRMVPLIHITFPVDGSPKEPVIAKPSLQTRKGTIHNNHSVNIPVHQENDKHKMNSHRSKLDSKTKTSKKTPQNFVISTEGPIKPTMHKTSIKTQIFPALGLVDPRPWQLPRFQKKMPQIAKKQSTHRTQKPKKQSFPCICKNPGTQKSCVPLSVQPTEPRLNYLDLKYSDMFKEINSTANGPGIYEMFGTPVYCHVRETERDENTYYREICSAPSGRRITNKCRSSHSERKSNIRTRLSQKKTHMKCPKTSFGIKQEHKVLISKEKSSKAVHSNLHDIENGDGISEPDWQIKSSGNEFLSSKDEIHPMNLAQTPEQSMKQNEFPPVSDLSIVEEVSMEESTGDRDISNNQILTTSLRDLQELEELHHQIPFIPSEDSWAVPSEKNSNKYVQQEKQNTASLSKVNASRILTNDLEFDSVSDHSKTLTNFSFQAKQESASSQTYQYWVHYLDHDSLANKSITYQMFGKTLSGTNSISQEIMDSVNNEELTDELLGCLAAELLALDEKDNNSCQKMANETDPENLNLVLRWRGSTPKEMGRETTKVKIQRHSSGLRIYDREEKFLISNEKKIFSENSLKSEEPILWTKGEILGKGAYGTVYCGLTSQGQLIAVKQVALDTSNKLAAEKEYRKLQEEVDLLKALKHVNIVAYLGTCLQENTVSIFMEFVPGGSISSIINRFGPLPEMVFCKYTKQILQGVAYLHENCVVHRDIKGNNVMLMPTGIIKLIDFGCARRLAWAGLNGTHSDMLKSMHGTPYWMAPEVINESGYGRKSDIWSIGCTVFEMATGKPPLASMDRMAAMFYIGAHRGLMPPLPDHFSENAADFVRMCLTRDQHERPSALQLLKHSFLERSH
Chain of UniProt Q9UQB9 (whole entry, looked up): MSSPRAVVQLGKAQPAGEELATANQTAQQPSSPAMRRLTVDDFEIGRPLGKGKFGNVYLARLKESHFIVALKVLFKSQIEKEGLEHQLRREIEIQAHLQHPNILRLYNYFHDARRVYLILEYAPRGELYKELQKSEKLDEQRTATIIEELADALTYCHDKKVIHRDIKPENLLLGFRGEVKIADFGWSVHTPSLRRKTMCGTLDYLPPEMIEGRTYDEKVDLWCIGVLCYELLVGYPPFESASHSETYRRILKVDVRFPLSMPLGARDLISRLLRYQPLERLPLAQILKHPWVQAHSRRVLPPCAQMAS
Chain of UniProt P51956 (whole entry, looked up): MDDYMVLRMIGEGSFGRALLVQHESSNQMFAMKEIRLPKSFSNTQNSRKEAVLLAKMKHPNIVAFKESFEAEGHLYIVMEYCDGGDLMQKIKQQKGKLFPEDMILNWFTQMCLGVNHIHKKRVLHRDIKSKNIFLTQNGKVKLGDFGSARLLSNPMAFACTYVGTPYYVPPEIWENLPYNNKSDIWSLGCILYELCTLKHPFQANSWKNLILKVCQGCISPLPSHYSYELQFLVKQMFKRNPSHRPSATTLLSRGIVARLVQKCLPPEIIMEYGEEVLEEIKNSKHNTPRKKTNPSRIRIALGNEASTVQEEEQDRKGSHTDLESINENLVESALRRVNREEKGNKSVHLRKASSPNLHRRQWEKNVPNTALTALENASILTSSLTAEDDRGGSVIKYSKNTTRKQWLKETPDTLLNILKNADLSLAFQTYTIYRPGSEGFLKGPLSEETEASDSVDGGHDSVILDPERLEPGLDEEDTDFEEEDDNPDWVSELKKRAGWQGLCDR

Sample 1
Organism: Plasmodium berghei
Mode: inhibitor
Cell line: Huh-7
Strain: liver stage
Tested at: 10 µM
Time: 24 h
Relative to: untreated control
SMILES	infection rate [%]
O=C(CCCCC(=O)Nc1c(I)cc(I)c(C(=O)O)c1I)Nc1c(I)cc(I)c(C(=O)O)c1I	116
CN1CCOC(c2ccccc2)c2ccccc2C1 (stereo not shown)	90
COc1ccc2c(c1)c(CC(=O)O)c(C)n2C(=O)c1ccc(Cl)cc1	74.1
C1N2CN3CN1CN(C2)C3	94.4
CC1(C)O[C@@H]2C[C@H]3[C@@H]4CCC5=CC(=O)CC[C@]5(C)[C@@]4(F)[C@@H](O)C[C@]3(C)[C@]2(C(=O)CCl)O1	118
COc1ccc(Cl)cc1C(=O)NCCc1ccc(S(=O)(=O)NC(=O)NC2CCCCC2)cc1	92.6

Sample 2
Species: mouse
Sample: microsomes or S9
Tested at: 2 µM
Time: 0.5 h
SMILES	remaining compound
Cc1ccc(C2(c3noc(Cn4ccnc4)n3)CCCC2)cc1	39.1%
COc1nc(Nc2ccc3[nH]ncc3c2)c(Cl)c(OC)n1	0.139%
Cn1nc(CNC(=O)c2cccn(C)c2=O)c2c1CCCC2	16%
CCn1nc(C)c(CNc2nnc(C3CCCCC3)o2)c1C	5.13%
Cc1cc(C#N)cc(C(=O)c2c(C(C)C)c(=O)n(Cc3cc(Cl)cc(Cl)n3)c(=O)n2Cc2cc(Cl)nc(Cl)n2)c1	0%
CCOCCOC(=O)C(C)Oc1ccc(Oc2ncc(Cl)cc2Cl)cc1 (stereo not shown)	0%

Sample 3
SMILES: Cc1noc([C@H]2C[C@@H](c3ccc(C(F)(F)F)cc3)CN(C(=O)N3CCS(=O)(=O)C3)C2)n1
Method: competition with immobilised ligand
Tested at: 1 µM
target	test	remaining binding
Ribosomal protein S6 kinase alpha-6, C-terminal kinase domain (RPS6KA6, Homo sapiens, UniProt Q9UK32)	cell-free assay	100%
EGFR (Homo sapiens, UniProt P00533, del746-750)	cell-free assay	67%
EPHA7 (Homo sapiens, UniProt Q15375)	cell-free assay	100%
WNK3 (Homo sapiens, UniProt Q9BYP7)	cell-free assay	76%
TXK (Homo sapiens, UniProt P42681)	binding	92%
EGFR (Homo sapiens, UniProt P00533, del747-750/T751S)	cell-free assay	83%
MET (Homo sapiens, UniProt P08581, Y1235D)	cell-free assay	100%
NEK3 (Homo sapiens, UniProt P51956)	cell-free assay	73%
BMPR2 (Homo sapiens, UniProt Q13873)	cell-free assay	100%
CSNK1D (Homo sapiens, UniProt P48730)	cell-free assay	100%
MKNK2 (Homo sapiens, UniProt Q9HBH9)	cell-free assay	100%
Ribosomal protein S6 kinase alpha-2, N-terminal kinase domain (RPS6KA2, Homo sapiens, UniProt Q15349)	cell-free assay	100%
Aurora kinase C (AURKC, Homo sapiens, UniProt Q9UQB9)	cell-free assay	100%
ERN1 (Homo sapiens, UniProt O75460)	cell-free assay	100%
MAP3K19 (Homo sapiens, UniProt Q56UN5)	cell-free assay	77%
DMPK (Homo sapiens, UniProt Q09013)	cell-free assay	100%
SBK1 (Homo sapiens, UniProt Q52WX2)	cell-free assay	100%

Sample 4
Target: Casein kinase II subunit alpha (CSNK2A1, Homo sapiens, UniProt P68400)
Chain of UniProt P68400 (whole entry, looked up): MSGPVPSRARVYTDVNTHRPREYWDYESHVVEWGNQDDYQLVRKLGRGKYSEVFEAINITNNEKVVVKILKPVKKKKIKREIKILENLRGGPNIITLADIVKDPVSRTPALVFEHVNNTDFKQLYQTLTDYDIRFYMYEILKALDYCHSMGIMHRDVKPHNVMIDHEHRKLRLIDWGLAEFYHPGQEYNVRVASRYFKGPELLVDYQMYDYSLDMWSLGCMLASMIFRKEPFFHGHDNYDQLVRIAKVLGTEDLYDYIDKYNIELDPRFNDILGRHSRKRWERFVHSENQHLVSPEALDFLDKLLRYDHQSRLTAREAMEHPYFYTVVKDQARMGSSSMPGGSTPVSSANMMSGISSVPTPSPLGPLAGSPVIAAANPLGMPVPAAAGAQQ
Effect on: enzyme activity
Mode: inhibitor
Tested at: 0.5 µM
Relative to: control
SMILES	remaining activity [%]
O=Nc1c(-c2c(O)[nH]c3ccccc23)[nH]c2ccccc12	78.2
N#CC(c1ccnc(NCCc2cccnc2)n1)c1nc2ccccc2s1 (stereo not shown)	22.1
O=C1c2ccccc2-c2nc3nnnn3nc21	101
Nc1nc(Nc2ccc(S(N)(=O)=O)cc2)nn1C(=S)Nc1c(F)cccc1F	76.6
COc1cc2c(N3CCN(C(=O)Nc4ccc(OC(C)C)cc4)CC3)ncnc2cc1OCCCN1CCCCC1	102

Sample 5
Cell line: A-375
Tested at: 100 µM
Time: 60 h
Compound	viability
CC(C(=O)O)c1ccc2c(c1)Cc1cccnc1O2 (stereo not shown)	25.7%
CC(N)CCCC(C)(C)O (stereo not shown)	76.2%
C[C@H](CCC(=O)O)[C@H]1CC[C@H]2[C@@H]3[C@@H](O)C[C@@H]4C[C@H](O)CC[C@]4(C)[C@H]3CC[C@]12C	95%

For quick reference, copied from above (sample 5):
Compound	viability
CC(C(=O)O)c1ccc2c(c1)Cc1cccnc1O2 (stereo not shown)	25.7%
CC(N)CCCC(C)(C)O (stereo not shown)	76.2%
C[C@H](CCC(=O)O)[C@H]1CC[C@H]2[C@@H]3[C@@H](O)C[C@@H]4C[C@H](O)CC[C@]4(C)[C@H]3CC[C@]12C	95%
